Results of several laboratories.
Each numbered part is a random draw from the data of one study; scales do not carry over between parts. Positions count from the first letter of the parent shown.

Study 1
Target: RING finger protein unkempt homolog, zinc fingers 1-6, SBP tag (UNK, Homo sapiens, UniProt Q9C0B0, residues 30-357)
Chain of UniProt Q9C0B0 (30-357, looked up): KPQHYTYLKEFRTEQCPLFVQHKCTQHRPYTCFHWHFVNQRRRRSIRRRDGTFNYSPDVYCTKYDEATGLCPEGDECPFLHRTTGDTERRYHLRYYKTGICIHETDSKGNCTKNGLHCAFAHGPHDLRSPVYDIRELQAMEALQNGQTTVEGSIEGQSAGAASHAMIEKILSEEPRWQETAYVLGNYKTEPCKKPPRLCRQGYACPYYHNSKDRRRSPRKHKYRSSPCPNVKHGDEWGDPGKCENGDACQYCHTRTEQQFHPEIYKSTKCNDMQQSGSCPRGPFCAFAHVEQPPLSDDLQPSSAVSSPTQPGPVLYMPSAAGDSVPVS
Technique: RNA Bind-n-Seq
Form: RNA
Medium: in vitro
Concentration: 100 nM
Setting: RNA with constant flanks, vertebrate orthologous sites, ends assumed
Reference: input RNA pool
Reading: higher = stronger binding
`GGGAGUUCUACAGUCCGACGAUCCCAGUUUGUAUGUACAUUACUCAUAUUCCUCUCUGUUUUGUUGGGAAAAAAAAAGACAUUUUAACCUUUUUUAAGGUUGUUGAUUUAAUUUCAUGUUAUUAGGUUGCAUGAUGUUGCCCUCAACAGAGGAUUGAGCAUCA` gave a bound/input enrichment of 0.23 ratio.
`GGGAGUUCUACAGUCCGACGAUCAAAAUGGUUUCUAUAUCGUGUCCCACCCUUGUGAGAGGGAGGGGAAAGCAGGUGACCAUAUGUUCCAAUUAGUUUUCUUUUUUCUAAGAAUAACUGUAUUUAUUAUGACGAUGGUGACUCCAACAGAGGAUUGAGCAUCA` has a bound/input enrichment of 0.241 ratio.
For `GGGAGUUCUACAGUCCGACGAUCCAGUUUGUAUGUACAUUAUUCAUAUUCCUCUCUGUUGUGUUUCGGGGGGAAAAGACAUUUUAGCCUUUUUUAAAAGUUACUGAUUUAAUUUCAUGUUAUUUGCUUGCAUGAAGUUGCCCUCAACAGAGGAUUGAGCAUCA`, the bound/input enrichment was 1.36 ratio.
`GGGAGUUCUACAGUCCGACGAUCCAGGGUGGGACCCGGGACCCGCGGCUCAGUGGUCCGCUAGCCACGUCAGCCAAGCCACUUUAGGUCCAUUUUUUUAUUUUAACAGUGCUCUUCCAUCUUGUGCAUAAGCCUGAGAUUCGGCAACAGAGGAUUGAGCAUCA` has a bound/input enrichment of 1.19 ratio.
`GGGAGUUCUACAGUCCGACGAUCUUACAGUCAUUGAUGGACUCUAUUUUUUUAUUAUUACUUGGACCUUGGUCGUUUUUAUACUAGCAAAAUGUCUUGUUUUACUUUGUGUUUUUUGGGGGGAGGGAGGGAGUGAACUUGCUGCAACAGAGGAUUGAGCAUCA` gave a bound/input enrichment of 2.21 ratio.
`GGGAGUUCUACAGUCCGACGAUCAAAUUUAUUUCAUGCCCUGGACUCCCUAUCGCACCGAUACUUUAAUAGAAUAUGCUUCUUUAGAAGAUUUCCAAAAUAGUCGCCAAACAACAACCUAUAAACUUCCAAAUCGAGUAGAUGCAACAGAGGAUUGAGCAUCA` has a bound/input enrichment of 1.15 ratio.
`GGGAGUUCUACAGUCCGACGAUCUUUAAAGUCAUUUUUUCACAUUUCCUGUAAAUAAUGGAUAAUCAUUUUUAUUUUAUUUUUAAGUGCUGUUUUAACAAUGUGGAUAGACCAUAAAUGUACUUGCUGAAUUCAUUCAUUUUUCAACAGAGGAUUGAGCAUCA` has a bound/input enrichment of 0.429 ratio.
`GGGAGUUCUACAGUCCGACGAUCGAUCUGGACCUUGGAGCCGAACCAGAGAGCUAGCAAAAGUAAGGCAGACUUGUAAAAUUAUAGCCAUGUACAGCUGCACAACAACAGUCCUACCACUAGCAGCUGCAUUAAAGUAUUUAUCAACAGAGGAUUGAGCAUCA` has a bound/input enrichment of 0.588 ratio.

Study 2
Target: RNA binding protein fox-1 homolog 2, RRM domain, GST-SBP tag (RBFOX2, Homo sapiens, UniProt O43251-10, residues 100-194)
Technique: RNA Bind-n-Seq
Form: RNA
Medium: in vitro
Concentration: 365 nM
Setting: natural RNA segment, single round, ends assumed
Reference: no-protein control
Reading: higher = stronger binding
Construct (chain): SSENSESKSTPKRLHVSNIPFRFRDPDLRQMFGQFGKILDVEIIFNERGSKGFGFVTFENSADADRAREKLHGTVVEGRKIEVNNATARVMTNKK
`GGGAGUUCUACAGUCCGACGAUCCAACAAGUCAGUCGUCUCCAUUGAUAUUUGUACAAAAGGUAUACAUGGGGAACACGUGUUCAUUCAUUAAGUCCAUCUUGCGUGCAGCUAUAUCCCUGAUUGGUUAUUUUUGGAAUUCUCGGGUGCCAA`: “RBNS enrichment (R)” 0.254.
For `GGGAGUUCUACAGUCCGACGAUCGUCCUAUAUUUUUAAAGCACACGGAAGGAGCACCAGCAGCUCUGAUAGUAUUGUGAAAGUUCUGAGACCUUCCCUGGCUCAGGACCUCUGAGUUUCCUUCCCCCUCCCCCUGGAAUUCUCGGGUGCCAA`, “RBNS enrichment (R)” read 0.725.
For `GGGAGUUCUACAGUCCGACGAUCAGGUAGGGUUUAAAGACCCCCAGUGGGAGCAUUUAGAUGGCAGGCGGCUGCAAGGAGUCUGCAGUGGUAACAGCUUCUCUCUAGCCUGGCUGGCUUUGGUAGGCAAAAGUUGGAAUUCUCGGGUGCCAA`, “RBNS enrichment (R)” read 0.485.
Under “RBNS enrichment (R)”, `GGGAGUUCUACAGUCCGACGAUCUGCGACUUCUCCUGGUCCUCCCCAGAAGUAUCUGGUGUCAGCUGAAGACCAUGUGUCCCCCAAUACUUAGAUUUCACCGUACUUUCUGAUGGUGUUUUUAAAAGGCCAAGUGGAAUUCUCGGGUGCCAA` is recorded as 0.241.
`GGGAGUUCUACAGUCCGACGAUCUGCUCUUUUUUACUCAUUGAAAUGUCAUGUGUUGUCUGAUUGGCUUGUAGAAUUGUUAUAGAUUACCGUGCAUUAGCACAGAUUUUAAUUGUCAUGAUUGCAGACUACAGUGGAAUUCUCGGGUGCCAA`: “RBNS enrichment (R)” 0.665.
For `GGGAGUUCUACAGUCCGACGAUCCAUCCUCCCUCCUGCCCCACCCCCACCCAAAGAAUCUAUGCGUCAGCUCAGGACGUGGGGCCGAUCUGUGUGAGUCCAGCAUGUACCUGUGUCCCCCGUAGUAUCCCCGCUGGAAUUCUCGGGUGCCAA`, “RBNS enrichment (R)” read 5.07.
Under “RBNS enrichment (R)”, `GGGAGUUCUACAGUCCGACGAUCAAUUGAGCUAUUUUCACUUACUGUGUAACAGAGACAGAUAAUAAAUCUAUCAUUUGAUUUGAACUUGGCUGUGAAGACUUUUUAUUGUUCCAGUGGCUACGGUGGUGGUGUGGAAUUCUCGGGUGCCAA` is recorded as 0.536.
`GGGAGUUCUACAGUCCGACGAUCUGCUUUAAGUUGACUCUUUCUUCCUCCCUUCUCCCUCCAGACCUGUUCCUACCCUUGCUGAACAGCACAAGAUGGGUGGGUCGGGGGCUAUCAAGGCCACUGUGGUAGUGUGGAAUUCUCGGGUGCCAA` — result for “RBNS enrichment (R)”: 0.422.

Study 3
Target: ABI1, truncated, D143A, DHFR fusion (Arabidopsis thaliana)
Technique: DHFR PCA, deep sequencing
Medium: yeast
Setting: methotrexate growth selection, single substitutions
Together with: (+)-ABA 17 µM
Reference: wild-type fitted maximum
Reading: higher = stronger binding
Starting sequence: PYL1, truncated, DHFR fusion (Arabidopsis thaliana); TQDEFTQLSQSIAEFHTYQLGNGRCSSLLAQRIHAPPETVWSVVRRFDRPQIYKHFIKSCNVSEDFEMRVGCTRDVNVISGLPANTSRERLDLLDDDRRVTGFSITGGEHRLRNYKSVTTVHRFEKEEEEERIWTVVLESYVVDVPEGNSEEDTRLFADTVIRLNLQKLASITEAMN
For `A13P`, “relative binding score” read -3.23%.
`N177G` — result for “relative binding score”: 99.6%.
Under “relative binding score”, `H110D` is recorded as 15.7%.
`D159V` — result for “relative binding score”: -4.66%.
`S59I` — result for “relative binding score”: 32.8%.
For `D48G`, “relative binding score” read 13%.
Under “relative binding score”, `A30Y` is recorded as 79.5%.
For `N85F`, “relative binding score” read 67.2%.
For `R132F`, “relative binding score” read 82.5%.
`Q51F` — result for “relative binding score”: 48.4%.
`T173G`: “relative binding score” 42%.
`I162E`: “relative binding score” -3.64%.
`G107D`: “relative binding score” 64%.
`L166Q`: “relative binding score” 3.03%.
`I57C`: “relative binding score” 20.8%.

Study 4
Organism: Saccharomyces cerevisiae
Observed: cell growth
Technique: competitive growth deep sequencing
Form: peptide
Setting: peptide tiling library
Together with: cyclin F-Cln2 fusion
Reading: direction not given
The enrichment score of `ALLRRLQDVANDRGSH` is reported as -0.642.
With `ISRLFPPRTPGWHQLQ` the enrichment score was -1.38.
`RSLKLDGLLEEN` has an enrichment score of 2.68.
For `RVSGLLSWTLSRVLWL`, the enrichment score was 0.323.
`LKGRRLVFDN` gave an enrichment score of 4.24.
For `EPKTLFLGAGDFQF`, the enrichment score was 1.86.
For `KPITLDTTDFQESFVT`, the enrichment score was 0.42.
`SFLIEYEFLIPPSLKP` gave an enrichment score of 0.448.
`CFRCLLFSFSGRSGVE` gave an enrichment score of 1.1.
The enrichment score of `MNQELLSVGSKRRRTG` is reported as 2.4.
The enrichment score of `SDSTVTKLDFDLEP` is reported as 0.629.
With `GQLVIPLDELTLDTSF` the enrichment score was 2.2.
For `TSPGPVLLHPSPSTTQ`, the enrichment score was 0.284.

Study 5
Target: Histone acetyltransferase KAT6A, winged helix 2, GST fusion (KAT6A, Homo sapiens, UniProt Q92794, residues 85-181)
Technique: protein binding microarray
Form: double-stranded DNA, one strand shown
Medium: in vitro
Concentration: not given
Setting: 8-mer, flanks averaged, mean of 2 arrays, mostly near background
Reference: not given
Reading: higher = stronger binding
Construct (chain): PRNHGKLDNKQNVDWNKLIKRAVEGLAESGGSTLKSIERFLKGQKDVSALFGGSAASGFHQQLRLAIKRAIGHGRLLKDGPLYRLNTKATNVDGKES
`AGACAAGC` gave an E-score of -0.0035.
With `CATCCGGA` the E-score was 0.0808.
`AGGCCGCA` gave an E-score of -0.022.
The E-score of `ACCATTGA` is reported as -0.118.
`CAAGTAGA` gave an E-score of -0.0493.
`GTTACATA` gave an E-score of -0.0845.
`CTGTATTC` has an E-score of -0.0417.
`CTGTGGTC` gave an E-score of 0.0771.
For `ACGCGTTG`, the E-score was 0.124.
The E-score of `CTGGCGCC` is reported as 0.229.
For `GATGATTA`, the E-score was -0.0719.
`ACGGCGCT` has an E-score of 0.0127.
For `GACTGCGA`, the E-score was 0.137.
The E-score of `CGAATCCG` is reported as 0.144.
`GTAGCGAC` has an E-score of -0.0911.
With `CGGCTACG` the E-score was 0.0838.
The E-score of `ATGAATTC` is reported as 0.0855.
For `AGTTAATC`, the E-score was 0.157.
For `GACATTTA`, the E-score was -0.194.
For `GACTCCTC`, the E-score was -0.0528.

Repeated from above (study 2):
For `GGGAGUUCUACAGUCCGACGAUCGUCCUAUAUUUUUAAAGCACACGGAAGGAGCACCAGCAGCUCUGAUAGUAUUGUGAAAGUUCUGAGACCUUCCCUGGCUCAGGACCUCUGAGUUUCCUUCCCCCUCCCCCUGGAAUUCUCGGGUGCCAA`, “RBNS enrichment (R)” read 0.725.
For `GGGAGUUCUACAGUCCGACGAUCAGGUAGGGUUUAAAGACCCCCAGUGGGAGCAUUUAGAUGGCAGGCGGCUGCAAGGAGUCUGCAGUGGUAACAGCUUCUCUCUAGCCUGGCUGGCUUUGGUAGGCAAAAGUUGGAAUUCUCGGGUGCCAA`, “RBNS enrichment (R)” read 0.485.
Under “RBNS enrichment (R)”, `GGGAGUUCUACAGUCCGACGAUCUGCGACUUCUCCUGGUCCUCCCCAGAAGUAUCUGGUGUCAGCUGAAGACCAUGUGUCCCCCAAUACUUAGAUUUCACCGUACUUUCUGAUGGUGUUUUUAAAAGGCCAAGUGGAAUUCUCGGGUGCCAA` is recorded as 0.241.
`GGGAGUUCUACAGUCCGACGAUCUGCUCUUUUUUACUCAUUGAAAUGUCAUGUGUUGUCUGAUUGGCUUGUAGAAUUGUUAUAGAUUACCGUGCAUUAGCACAGAUUUUAAUUGUCAUGAUUGCAGACUACAGUGGAAUUCUCGGGUGCCAA`: “RBNS enrichment (R)” 0.665.
